Measured values of several laboratories.
Protocols differ between the studies behind these lines. Numbers after ± are the reported error.
Sequence of UniProt P22894 (whole entry, looked up): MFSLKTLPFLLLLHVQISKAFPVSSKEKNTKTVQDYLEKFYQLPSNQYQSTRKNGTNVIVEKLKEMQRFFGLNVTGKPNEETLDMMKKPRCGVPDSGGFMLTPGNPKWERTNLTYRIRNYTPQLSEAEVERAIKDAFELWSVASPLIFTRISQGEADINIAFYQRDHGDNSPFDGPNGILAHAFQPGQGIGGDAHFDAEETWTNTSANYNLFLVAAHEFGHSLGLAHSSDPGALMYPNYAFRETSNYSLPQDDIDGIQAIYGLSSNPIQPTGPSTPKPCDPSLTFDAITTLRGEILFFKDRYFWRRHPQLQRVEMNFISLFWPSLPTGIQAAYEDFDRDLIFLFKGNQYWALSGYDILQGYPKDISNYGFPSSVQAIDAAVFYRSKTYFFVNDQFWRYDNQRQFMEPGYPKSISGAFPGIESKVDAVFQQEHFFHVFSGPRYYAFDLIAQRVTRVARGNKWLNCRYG
Sequence of UniProt O00574 (whole entry, looked up): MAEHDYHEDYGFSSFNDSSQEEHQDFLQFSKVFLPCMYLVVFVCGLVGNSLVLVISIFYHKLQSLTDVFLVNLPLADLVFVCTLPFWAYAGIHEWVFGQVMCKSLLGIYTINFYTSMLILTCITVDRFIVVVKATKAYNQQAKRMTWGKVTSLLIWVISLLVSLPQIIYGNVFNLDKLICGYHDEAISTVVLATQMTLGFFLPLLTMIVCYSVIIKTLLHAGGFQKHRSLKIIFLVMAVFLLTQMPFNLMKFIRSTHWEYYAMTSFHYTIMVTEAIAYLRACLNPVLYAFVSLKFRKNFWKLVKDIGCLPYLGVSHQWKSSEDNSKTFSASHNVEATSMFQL
Sequence of UniProt P07948 (whole entry, looked up): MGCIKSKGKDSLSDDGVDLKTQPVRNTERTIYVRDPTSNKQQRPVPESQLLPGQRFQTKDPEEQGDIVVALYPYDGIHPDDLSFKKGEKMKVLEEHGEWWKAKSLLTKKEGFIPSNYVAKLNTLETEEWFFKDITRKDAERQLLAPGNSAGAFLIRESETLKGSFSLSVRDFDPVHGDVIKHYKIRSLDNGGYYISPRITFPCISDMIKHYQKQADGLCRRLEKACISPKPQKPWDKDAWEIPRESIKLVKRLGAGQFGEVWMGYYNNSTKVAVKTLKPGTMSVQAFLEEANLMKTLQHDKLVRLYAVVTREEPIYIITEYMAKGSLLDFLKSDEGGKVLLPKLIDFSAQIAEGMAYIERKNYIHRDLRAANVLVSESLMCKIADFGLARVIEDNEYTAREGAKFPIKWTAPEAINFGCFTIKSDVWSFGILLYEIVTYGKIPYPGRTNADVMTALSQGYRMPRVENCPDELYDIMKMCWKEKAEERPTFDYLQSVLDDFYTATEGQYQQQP
Sequence of UniProt Q92973 (whole entry, looked up): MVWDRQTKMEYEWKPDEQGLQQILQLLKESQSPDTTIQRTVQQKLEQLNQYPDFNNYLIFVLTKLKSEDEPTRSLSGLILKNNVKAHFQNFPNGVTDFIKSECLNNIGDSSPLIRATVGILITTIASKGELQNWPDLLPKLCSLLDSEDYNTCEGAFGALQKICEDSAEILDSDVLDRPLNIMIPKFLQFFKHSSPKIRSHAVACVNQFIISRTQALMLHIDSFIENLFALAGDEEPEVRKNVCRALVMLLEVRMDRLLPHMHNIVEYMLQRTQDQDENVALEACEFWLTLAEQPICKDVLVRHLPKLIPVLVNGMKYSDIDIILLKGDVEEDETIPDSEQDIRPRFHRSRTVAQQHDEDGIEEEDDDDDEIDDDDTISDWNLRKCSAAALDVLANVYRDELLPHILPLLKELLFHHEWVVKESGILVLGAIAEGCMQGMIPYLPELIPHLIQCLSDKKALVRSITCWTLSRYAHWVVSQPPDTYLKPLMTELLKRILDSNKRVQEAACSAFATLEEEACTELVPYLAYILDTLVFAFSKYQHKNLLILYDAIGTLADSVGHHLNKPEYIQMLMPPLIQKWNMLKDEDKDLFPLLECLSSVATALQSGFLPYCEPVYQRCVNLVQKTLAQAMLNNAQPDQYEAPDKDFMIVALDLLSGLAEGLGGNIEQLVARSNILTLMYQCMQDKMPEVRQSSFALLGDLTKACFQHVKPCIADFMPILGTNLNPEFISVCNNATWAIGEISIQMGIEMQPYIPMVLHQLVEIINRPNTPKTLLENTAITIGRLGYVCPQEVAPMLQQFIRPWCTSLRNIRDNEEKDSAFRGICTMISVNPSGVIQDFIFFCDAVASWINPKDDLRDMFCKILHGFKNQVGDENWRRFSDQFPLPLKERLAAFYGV

Compound	tested on	assay	test system	setting	scale	measurement	result
CO[C@H]1C[C@@H]2CC[C@@H](C)[C@@](O)(O2)C(=O)C(=O)N2CCCC[C@H]2C(=O)O[C@H]([C@H](C)C[C@@H]2CC[C@@H](OC(=O)NCCOCCOCCOCCOCCOCCOCCOCCOCCC(=O)N3CCc4cc(Cn5nc(-c6ccc7oc(N)nc7c6)c6c(N)ncnc65)ccc4C3)[C@H](OC)C2)C[C@@H](O)[C@H](C)/C=C(\C)[C@@H](O)[C@@H](OC)C(=O)[C@H](C)C[C@H](C)/C=C/C=C/C=C/1C	–	–	patients with advanced solid tumours	intravenous, dose not given, any grade	–	incidence of Dyspnea TEAE	28.1%
CC[C@H](C)[C@@H]1NC(=O)[C@@H]2CCCN2C(=O)[C@H](CC(C)C)NC(=O)[C@H](CC(C)C)NC(=O)CNC(=O)[C@@H](NC(=O)[C@@H](NC(=O)[C@H](CC(=O)O)NC(=O)CNC(=O)[C@@H](NC(=O)[C@H](C)NC(=O)CNC(=O)[C@H](CCCCN)NC(=O)[C@H](CC(C)C)NC(=O)[C@H](CC(C)C)NC(=O)[C@H](CCCCN)NC(=O)CNC(=O)[C@@H](NC(=O)[C@@H](N)CC(C)C)C(C)C)C(C)C)C(C)C)CSSC[C@@H](C(=O)O)NC1=O	–	RNA-seq, item: Aqp1	mouse, traumatic brain injury model, frontal cortex and hippocampus	dose not given	relative to: TBI alone	log2 fold change	-2.25
O=C(c1ccc(F)c(F)c1Nc1ccc(I)cc1F)N1CC(O)([C@@H]2CCCCN2)C1	–	–	human patients	oral, dose not given, dose escalation, suspension	–	AE causing treatment withdrawal	15%
CC(C)CC(=O)OC[C@H]1O[C@@](C#N)(c2ccc3c(N)ncnn23)[C@H](O)[C@@H]1O	–	–	mouse plasma	0.9 µM	–	fraction bound	0.863
O=C(Nc1ccccc1)C1CCN(C(=O)Oc2cccnc2)CC1	–	adverse event reporting	healthy women	oral, 100 mg, 9 days	–	subjects with eye disorders	15.4%
CC(C)(C)c1cc(-n2nc3ccccc3n2)c(O)c(C(C)(C)C)c1	–	–	human aged 6-11 years	concentration not given, sunscreen, 95th percentile	–	daily dermal exposure dose	5.85 ng/kg/day
COc1ccc(-c2c(-c3ccc(C#N)c(F)c3)nc(N3CCC(N)CC3)n(C)c2=O)cc1F	–	item: Abdominal pain	human patients	oral, 60 mg, dose expansion	–	serious adverse event incidence	0%
C[C@@H](NC(=O)N1C(=O)[C@H](Cc2ccnc(N)c2)[C@H]1C(=O)O)C1CCCCC1	–	–	healthy Chinese adult volunteers	continuous intravenous infusion, dose not given, 5.0 days, CTCAE 5.0, all doses	–	urine leukocyte esterase positive	15%
O.O.O.O.O.O.[Cl-].[Cl-].[Co+2]	–	–	Crl:CD(SD) rat female, blood	oral, 7.44 mg Co/kg/day, 90 days	–	red blood cell count	9.15 ×10E6/µl
CN1CCN(c2cc(-c3ccncc3)c(-c3ccc4ccccc4c3)nn2)CC1	CXCR6 (Homo sapiens, UniProt O00574)	agonist, FLIPR	–	12.5 µM	–	activation	-0.9%
COc1cc(Nc2ncc(F)c(Nc3ccc4c(n3)NC(=O)C(C)(C)O4)n2)cc(OC)c1OC	MMP8 (Homo sapiens, UniProt P22894)	–	–	metalloproteinase-8	–	IC50	> 10 µM
C[C@H]1CN(c2n[nH]c3nc(N[C@H]4CC[C@H](NS(=O)(=O)CCC(F)(F)F)CC4)ncc23)CCO1	Transportin-1 (TNPO1, Homo sapiens, UniProt Q92973)	inhibitor, Kinobeads competition profiling	–	0.032 µM	relative to: vehicle	relative abundance	0.97
O=c1ccc2ncc(=O)n3c2n1C[C@H]3CN1CCC(NCc2cc3c(cn2)OCCC3)CC1	–	–	healthy human participants, plasma	oral, 1500 mg, median, compound alone	–	tlag	0 h
CCC[C@@](N)(CO)CCc1ccc(OCCCCCC(C)C)cc1	–	–	male hound dog, plasma	oral, 2.5 mg/kg, solution, median	–	half-life	18.8 h
NCC(CS(=O)(=O)O)c1ccc(Cl)cc1 (stereo not drawn)	de novo protein S23	binding, NMR	–	–	–	Kd	42 ± 17 µM
COc1cc2c(Oc3ccc4[nH]c(C)cc4c3F)ccnc2cc1OCC1(N)CC1	–	–	paediatric recurrent refractory sarcoma	10 mg	–	grade 1 or 2 abdominal pain	50%
CC(C)C[C@H](NC(=O)[C@@H](NC(=O)[C@H](CO)NC(=O)[C@H](CO)NC(=O)[C@@H](NC(=O)[C@H](CC(=O)O)NC(=O)[C@H](CC(C)C)NC(=O)[C@@H]1CCCN1C(=O)[C@H](CO)NC(=O)c1ccc2c(c1)C(=O)OC21c2ccc(N(C)C)cc2Oc2cc(N(C)C)ccc21)[C@@H](C)O)C(C)C)C(=O)N[C@@H](Cc1ccc(OP(=O)(O)O)cc1)C(=O)N[C@H](C(=O)N[C@@H](C)C(=O)N[C@H](C(=O)N[C@@H](CCC(N)=O)C(=O)N1CCC[C@H]1C(=O)N[C@@H](CC(N)=O)C(=O)N[C@@H](CCC(=O)O)C(=O)N[C@@H](CC(=O)O)C(=O)O)C(C)C)[C@@H](C)O	Tyrosine-protein kinase Lyn, SH2 domain (LYN, Homo sapiens, UniProt P07948)	binding	–	–	–	Kd	0.185 µM
CC[C@H](C)[C@H](NC(=O)[C@H](Cc1ccccc1)NC(=O)[C@H](CCC(=O)O)NC(=O)[C@H](CCCNC(=N)N)NC(=O)[C@H](C)NC(=O)[C@H](C)NC(=O)[C@H](CCC(N)=O)NC(=O)[C@H](CCC(=O)O)NC(=O)[C@H](CCC(=O)O)NC(=O)[C@H](CC(C)C)NC(=O)[C@H](Cc1ccc(O)cc1)NC(=O)[C@H](CO)NC(=O)[C@H](CO)NC(=O)[C@@H](NC(=O)[C@H](CC(=O)O)NC(=O)[C@H](CO)NC(=O)[C@@H](NC(=O)[C@H](Cc1ccccc1)NC(=O)[C@@H](NC(=O)CNC(=O)[C@H](CCC(=O)O)NC(=O)[C@H](C)NC(=O)CCc1c[nH]cn1)[C@@H](C)O)[C@@H](C)O)C(C)C)C(=O)N[C@@H](C)C(=O)N[C@@H](Cc1c[nH]c2ccccc12)C(=O)N[C@@H](CC(C)C)C(=O)N[C@H](C(=O)N[C@@H](CCCNC(=N)N)C(=O)NCC(=O)N[C@@H](CCCNC(=N)N)C(=O)N[C@@H](CCCCNC(=O)COCCOCCNC(=O)COCCOCCNC(=O)CC[C@H](NC(=O)CCCCCCCCCCCCCCCCC(=O)O)C(=O)O)C(=O)NCC(=O)NCC(=O)N[C@@H](CO)C(=O)N[C@@H](CCCCNc1c(NCCCCCN(O)C(=O)CCC(=O)NCCCCCN(O)C(=O)CCC(=O)NCCCCCN(O)C(C)=O)c(=O)c1=O)C(=O)O)C(C)C [zirconium-89 labelled]	–	–	rat, liver	iv, 3 nmol/kg, 24 h, ex vivo	–	tissue uptake	1.1 %ID/g
Clc1ccc(Cl)c(-c2cc(Cl)ccc2Cl)c1	–	–	Sprague Dawley rat, thymus	intraperitoneal, 10 mg/kg	–	organ weight	0.48 g
CCc1ccc(CC/C=C/c2ccc3c(c2)C(=O)CC3)cc1	–	–	Sprague-Dawley rat, female, blood	oral, 450 mg/kg/day, 14 days	–	mean platelet volume	10.7 fL
C[C@]1(CO)Cc2ncn(-c3ccc(C#N)c(Cl)c3)c2C(=O)O1	–	–	human, plasma	80 mg single dose, geometric mean	–	Cmax	2870 nM

Repeated from above:
Compound	tested on	assay	test system	setting	scale	measurement	result
CN1CCN(c2cc(-c3ccncc3)c(-c3ccc4ccccc4c3)nn2)CC1	CXCR6 (Homo sapiens, UniProt O00574)	agonist, FLIPR	–	12.5 µM	–	activation	-0.9%
CC(C)C[C@H](NC(=O)[C@@H](NC(=O)[C@H](CO)NC(=O)[C@H](CO)NC(=O)[C@@H](NC(=O)[C@H](CC(=O)O)NC(=O)[C@H](CC(C)C)NC(=O)[C@@H]1CCCN1C(=O)[C@H](CO)NC(=O)c1ccc2c(c1)C(=O)OC21c2ccc(N(C)C)cc2Oc2cc(N(C)C)ccc21)[C@@H](C)O)C(C)C)C(=O)N[C@@H](Cc1ccc(OP(=O)(O)O)cc1)C(=O)N[C@H](C(=O)N[C@@H](C)C(=O)N[C@H](C(=O)N[C@@H](CCC(N)=O)C(=O)N1CCC[C@H]1C(=O)N[C@@H](CC(N)=O)C(=O)N[C@@H](CCC(=O)O)C(=O)N[C@@H](CC(=O)O)C(=O)O)C(C)C)[C@@H](C)O	Tyrosine-protein kinase Lyn, SH2 domain (LYN, Homo sapiens, UniProt P07948)	binding	–	–	–	Kd	0.185 µM
CC(C)(C)c1cc(-n2nc3ccccc3n2)c(O)c(C(C)(C)C)c1	–	–	human aged 6-11 years	concentration not given, sunscreen, 95th percentile	–	daily dermal exposure dose	5.85 ng/kg/day
